Measurements from different studies.
Compare with care: the assays were run in different laboratories.
Target: NAD-dependent protein deacetylase sirtuin-2 (SIRT2, Homo sapiens, UniProt Q8IXJ6)
Sequence (Q8IXJ6 1-389, as in one of the studies): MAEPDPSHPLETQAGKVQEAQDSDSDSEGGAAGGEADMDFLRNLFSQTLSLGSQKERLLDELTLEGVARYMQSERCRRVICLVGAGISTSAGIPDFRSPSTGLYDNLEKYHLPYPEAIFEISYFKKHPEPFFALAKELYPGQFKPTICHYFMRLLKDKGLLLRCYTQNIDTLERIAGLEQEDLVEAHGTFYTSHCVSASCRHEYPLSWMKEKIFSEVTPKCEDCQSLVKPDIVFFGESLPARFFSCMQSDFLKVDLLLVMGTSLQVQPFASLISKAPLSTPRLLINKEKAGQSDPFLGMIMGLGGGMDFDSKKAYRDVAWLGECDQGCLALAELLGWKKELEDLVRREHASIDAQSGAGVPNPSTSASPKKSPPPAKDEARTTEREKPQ

SMILES | test | IC50
COC(=O)[C@H](C)NC(=O)[C@H](C)NC(=O)[C@H](CCCCNC(C)=S)NC(=O)c1ccc(C(=O)c2ccc(OC/C=C/Cn3cc(COCCOCCOc4cccc5c4C(=O)N(C4CCC(=O)NC4=O)C5=O)nn3)cc2)cc1 (some centres unmarked) | enzyme activity, inhibitor, HPLC | 3500 nM
Cc1cc(C)nc(SCC(=O)Nc2ncc(Cc3cccc(OCc4cn(Cc5ccc(C#N)cc5)nn4)c3)s2)n1 | enzyme activity, inhibitor, fluorescence | 150 nM
Cc1cc(C)nc(SCC(=O)Nc2ncc(Cc3cccc(OCc4cn(CCOCCOCCCCCCCl)nn4)c3)s2)n1 | enzyme activity, inhibitor, fluorescence | 740 nM
CCCCCCCCCCCCCC(=S)NCCCC[C@H](NC(=O)[C@H](CCCNC(=N)N)NC(=O)[C@H](C)N)C(=O)N[C@@H](CO)C(=O)N[C@H](C(=O)O)[C@@H](C)O |  | 2600 nM
CCCCCCCCCCCCCC(=S)NCCCC[C@H](NS(C)(=O)=O)C(=O)N[C@@H](C)C(=O)N[C@@H](CCCNC(=N)N)C(N)=O | enzyme activity, inhibitor, HPLC | 16 nM
COCCn1cc(COc2cccc(Cc3cnc(NC(=O)C(C)c4ccc(CC(C)C)cc4)s3)c2)nn1 (centres unmarked) | enzyme activity, inhibitor, fluorescence | 6000 nM
CCCCCCCCCCCCCC(=S)NCCCC[C@H](NC(=O)[C@@H]1CCCN1C(=O)[C@@H](N)CC(C)C)C(=O)N[C@@H](CCCCN)C(=O)N[C@H](C(=O)O)[C@@H](C)O |  | 2600 nM
CC(=S)NCCCC[C@H](NC(=O)[C@H](CCCNC(=N)N)NC(=O)[C@H](C)NC(=O)[C@@H](NC(=O)[C@H](CCC(N)=O)NC(=O)[C@@H](N)CCCCN)[C@@H](C)O)C(=O)N[C@@H](CO)C(=O)N[C@H](C(=O)NCC(=O)NCC(=O)N[C@@H](CCCCN)C(=O)N[C@@H](C)C(=O)O)[C@@H](C)O | enzyme activity, inhibitor, HPLC | 1000 to 2000 nM

Repeated from above:
SMILES | test | IC50
COCCn1cc(COc2cccc(Cc3cnc(NC(=O)C(C)c4ccc(CC(C)C)cc4)s3)c2)nn1 (centres unmarked) | enzyme activity, inhibitor, fluorescence | 6000 nM
